Results gathered from unrelated publications.
Every numbered part comes from another study and shows a few of its results, in no order.
Chain of UniProt P11229 (whole entry, looked up): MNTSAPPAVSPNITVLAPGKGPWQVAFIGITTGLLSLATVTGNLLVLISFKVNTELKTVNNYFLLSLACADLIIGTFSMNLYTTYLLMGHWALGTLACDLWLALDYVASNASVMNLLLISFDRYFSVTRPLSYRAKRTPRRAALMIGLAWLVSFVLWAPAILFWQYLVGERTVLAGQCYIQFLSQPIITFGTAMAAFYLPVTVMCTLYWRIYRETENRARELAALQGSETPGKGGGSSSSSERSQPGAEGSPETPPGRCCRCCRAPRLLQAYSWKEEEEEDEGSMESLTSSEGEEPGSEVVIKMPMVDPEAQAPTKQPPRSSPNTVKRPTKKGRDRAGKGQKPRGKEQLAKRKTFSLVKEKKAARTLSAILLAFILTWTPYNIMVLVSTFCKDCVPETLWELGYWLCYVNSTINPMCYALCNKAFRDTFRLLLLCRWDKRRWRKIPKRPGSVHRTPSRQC
Chain of UniProt P20309 (whole entry, looked up): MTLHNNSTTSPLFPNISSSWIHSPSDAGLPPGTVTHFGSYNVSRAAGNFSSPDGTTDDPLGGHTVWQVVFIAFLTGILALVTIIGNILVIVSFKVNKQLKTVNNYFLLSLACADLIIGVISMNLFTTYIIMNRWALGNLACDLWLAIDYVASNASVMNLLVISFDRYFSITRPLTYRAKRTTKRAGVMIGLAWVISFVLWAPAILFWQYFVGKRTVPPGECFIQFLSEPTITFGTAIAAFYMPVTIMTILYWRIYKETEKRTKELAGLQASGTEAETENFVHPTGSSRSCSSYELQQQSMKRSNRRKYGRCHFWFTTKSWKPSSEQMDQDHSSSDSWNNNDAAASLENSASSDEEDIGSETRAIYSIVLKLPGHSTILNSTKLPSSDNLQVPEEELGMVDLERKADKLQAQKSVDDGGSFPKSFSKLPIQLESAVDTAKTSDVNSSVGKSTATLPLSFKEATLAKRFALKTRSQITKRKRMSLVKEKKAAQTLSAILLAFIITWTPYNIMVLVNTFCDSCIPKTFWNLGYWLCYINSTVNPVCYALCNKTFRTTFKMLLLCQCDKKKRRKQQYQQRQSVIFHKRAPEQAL
Chain of UniProt P41145 (whole entry, looked up): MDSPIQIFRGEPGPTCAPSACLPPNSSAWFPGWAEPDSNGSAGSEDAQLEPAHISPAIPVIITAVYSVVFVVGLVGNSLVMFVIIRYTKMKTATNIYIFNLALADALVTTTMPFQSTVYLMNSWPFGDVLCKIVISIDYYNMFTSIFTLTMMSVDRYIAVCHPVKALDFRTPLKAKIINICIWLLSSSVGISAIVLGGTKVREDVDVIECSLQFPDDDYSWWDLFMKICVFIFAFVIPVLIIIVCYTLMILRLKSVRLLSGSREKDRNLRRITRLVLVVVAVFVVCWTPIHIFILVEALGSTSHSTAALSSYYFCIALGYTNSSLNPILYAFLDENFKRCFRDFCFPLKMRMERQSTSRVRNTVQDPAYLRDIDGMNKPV
Chain of UniProt Q01959 (whole entry, looked up): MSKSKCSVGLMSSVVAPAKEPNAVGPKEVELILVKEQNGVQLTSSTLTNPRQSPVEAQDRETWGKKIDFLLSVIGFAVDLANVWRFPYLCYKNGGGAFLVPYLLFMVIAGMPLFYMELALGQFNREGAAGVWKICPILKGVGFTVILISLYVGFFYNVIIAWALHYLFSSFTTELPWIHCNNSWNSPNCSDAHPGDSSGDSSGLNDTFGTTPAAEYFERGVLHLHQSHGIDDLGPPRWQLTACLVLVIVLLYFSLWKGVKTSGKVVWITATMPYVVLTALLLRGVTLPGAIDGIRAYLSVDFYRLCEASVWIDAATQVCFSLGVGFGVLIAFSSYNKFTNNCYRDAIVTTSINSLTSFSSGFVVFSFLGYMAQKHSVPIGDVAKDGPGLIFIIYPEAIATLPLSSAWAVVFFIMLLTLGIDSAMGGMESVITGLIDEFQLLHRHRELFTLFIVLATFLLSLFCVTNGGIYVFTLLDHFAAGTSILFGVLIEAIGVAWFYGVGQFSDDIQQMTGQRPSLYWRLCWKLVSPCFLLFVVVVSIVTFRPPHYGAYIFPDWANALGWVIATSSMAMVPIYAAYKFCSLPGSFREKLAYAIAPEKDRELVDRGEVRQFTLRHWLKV
Chain of UniProt P23975 (whole entry, looked up): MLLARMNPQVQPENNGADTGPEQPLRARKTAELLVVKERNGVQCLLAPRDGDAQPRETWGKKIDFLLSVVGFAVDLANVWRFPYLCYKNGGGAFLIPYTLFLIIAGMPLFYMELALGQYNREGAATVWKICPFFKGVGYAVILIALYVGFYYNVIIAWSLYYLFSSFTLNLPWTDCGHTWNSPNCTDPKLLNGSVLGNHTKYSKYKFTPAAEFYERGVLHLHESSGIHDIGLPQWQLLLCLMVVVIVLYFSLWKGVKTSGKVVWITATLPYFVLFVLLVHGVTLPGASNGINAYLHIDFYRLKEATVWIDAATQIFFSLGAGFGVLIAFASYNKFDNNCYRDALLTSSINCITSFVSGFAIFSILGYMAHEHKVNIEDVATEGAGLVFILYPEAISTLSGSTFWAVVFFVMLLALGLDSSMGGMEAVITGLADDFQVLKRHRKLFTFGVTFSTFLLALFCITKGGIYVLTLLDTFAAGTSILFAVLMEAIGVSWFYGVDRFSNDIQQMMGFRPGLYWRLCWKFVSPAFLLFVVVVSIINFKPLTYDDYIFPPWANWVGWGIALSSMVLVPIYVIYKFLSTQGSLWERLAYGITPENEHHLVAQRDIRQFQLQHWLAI

Study 1 — cell line: HEK-293T/ACE2; observed: pseudovirus infection; method: counter-screen; organism: VSV pseudotyped with VSV-G; concentration: 10 µM; time: 16 h; baseline: vehicle-treated
| Compound | GFP-positive cells |
| --- | --- |
| CN(C)CCn1nnnc1SCC1=C(C(=O)O)N2C(=O)[C@@H](NC(=O)Cc3csc(N)n3)[C@H]2SC1 | 108% |
| Cn1c(=O)cc(N2CCC[C@@H](N)C2)n(Cc2ccccc2C#N)c1=O | 115% |
| Cc1cc(C)cc(OCC2CNC(=O)O2)c1 (stereo not drawn) | 103% |
| CO[C@H]1/C=C/O[C@@]2(C)Oc3c(C)c(O)c4c(O)c(c(/C=N/N5CCN(C6CCCC6)CC5)c(O)c4c3C2=O)NC(=O)/C(C)=C\C=C\[C@H](C)[C@H](O)[C@@H](C)[C@@H](O)[C@@H](C)[C@H](OC(C)=O)[C@@H]1C | 90% |

Study 2 — cell line: HEK-293T-ACE2-TMPRSS2; method: cell count; concentration: 10 µM
| SMILES | viability |
| --- | --- |
| O=C(NCCSc1ccc([N+](=O)[O-])c2onnc12)Oc1cccc(C(F)(F)F)c1 | 70% |
| CC(C)c1cc(C(=O)N2Cc3ccc(CN4CCN(C)CC4)cc3C2)c(O)cc1O | 113% |
| O=C(c1csc2c1CCCC2)N1CCCC(CNS(=O)(=O)c2cccs2)C1 (stereo not drawn) | 105% |
| O=C1C2C3C=CC(C2C(=O)N1c1ccccc1)C1C2C(=O)N(c4ccccc4)C(=O)C2C31 (stereo not drawn) | 114% |
| O=C(Cn1cncn1)N1CCC(c2cc(-c3ccccc3Cl)n[nH]2)CC1 | 85% |
| CC(C)C[C@H](NC(=O)[C@H](Cc1ccccc1)NC(=O)c1cnccn1)B(O)O | 109% |
| O=C(c1ccc(N2CCC(CO)C2)nc1)N1CCC(CCc2ccccc2)CC1 (stereo not drawn) | 81% |
| COC[C@@H]1CN(C(=O)CC(C)C)C[C@H]1c1nc(C)no1 | 99% |
| Cc1nc(NCc2csc(C)n2)c2c3c(sc2n1)CCC3 | 88% |
| COc1ccc(NC(=O)N2c3ccccc3CC2c2nc(C(C)C)no2)c(C)c1 (stereo not drawn) | 91% |

Study 3 — concentration: 10 µM
Compound: CO[C@@H](C)c1c(Nc2ccc([C@H](N(C)C(=O)C3CCS(=O)(=O)CC3)C(F)(F)F)cc2)cnc2cc(Cl)nn12
| target | test | inhibition |
| --- | --- | --- |
| Muscarinic acetylcholine receptor M3 (CHRM3, Homo sapiens, UniProt P20309) | ligand displacement | -8.44% |
| Muscarinic acetylcholine receptor M1 (CHRM1, Homo sapiens, UniProt P11229) | ligand displacement | -12.6% |
| Sodium-dependent dopamine transporter (SLC6A3, Homo sapiens, UniProt Q01959) | cell-free assay | -17.4% |
| Sodium-dependent noradrenaline transporter (SLC6A2, Homo sapiens, UniProt P23975) | cell-free assay | -28.4% |
| Kappa-type opioid receptor (OPRK1, Homo sapiens, UniProt P41145) | ligand displacement | 31.9% |

Further values, each from its own experiment — cell line: HaCaT; concentration: 100 µM; time: 60 h
| Compound | viability [%] |
| --- | --- |
| Cn1c(CCCC(=O)O)nc2cc(N(CCCl)CCCl)ccc21 | 116 |
| CNC(=O)Oc1ccccc1OC(C)C | 150 |

Excerpt of the above (study 3):
| target | test | inhibition |
| --- | --- | --- |
| Muscarinic acetylcholine receptor M1 (CHRM1, Homo sapiens, UniProt P11229) | ligand displacement | -12.6% |
| Sodium-dependent noradrenaline transporter (SLC6A2, Homo sapiens, UniProt P23975) | cell-free assay | -28.4% |
| Muscarinic acetylcholine receptor M3 (CHRM3, Homo sapiens, UniProt P20309) | ligand displacement | -8.44% |
